Assay results pooled from the literature.
A part holds a random share of what one study measured. Several values in a cell are separate wells, animals, samples, runs or records.
UniProt O14646, sequence (whole entry, looked up): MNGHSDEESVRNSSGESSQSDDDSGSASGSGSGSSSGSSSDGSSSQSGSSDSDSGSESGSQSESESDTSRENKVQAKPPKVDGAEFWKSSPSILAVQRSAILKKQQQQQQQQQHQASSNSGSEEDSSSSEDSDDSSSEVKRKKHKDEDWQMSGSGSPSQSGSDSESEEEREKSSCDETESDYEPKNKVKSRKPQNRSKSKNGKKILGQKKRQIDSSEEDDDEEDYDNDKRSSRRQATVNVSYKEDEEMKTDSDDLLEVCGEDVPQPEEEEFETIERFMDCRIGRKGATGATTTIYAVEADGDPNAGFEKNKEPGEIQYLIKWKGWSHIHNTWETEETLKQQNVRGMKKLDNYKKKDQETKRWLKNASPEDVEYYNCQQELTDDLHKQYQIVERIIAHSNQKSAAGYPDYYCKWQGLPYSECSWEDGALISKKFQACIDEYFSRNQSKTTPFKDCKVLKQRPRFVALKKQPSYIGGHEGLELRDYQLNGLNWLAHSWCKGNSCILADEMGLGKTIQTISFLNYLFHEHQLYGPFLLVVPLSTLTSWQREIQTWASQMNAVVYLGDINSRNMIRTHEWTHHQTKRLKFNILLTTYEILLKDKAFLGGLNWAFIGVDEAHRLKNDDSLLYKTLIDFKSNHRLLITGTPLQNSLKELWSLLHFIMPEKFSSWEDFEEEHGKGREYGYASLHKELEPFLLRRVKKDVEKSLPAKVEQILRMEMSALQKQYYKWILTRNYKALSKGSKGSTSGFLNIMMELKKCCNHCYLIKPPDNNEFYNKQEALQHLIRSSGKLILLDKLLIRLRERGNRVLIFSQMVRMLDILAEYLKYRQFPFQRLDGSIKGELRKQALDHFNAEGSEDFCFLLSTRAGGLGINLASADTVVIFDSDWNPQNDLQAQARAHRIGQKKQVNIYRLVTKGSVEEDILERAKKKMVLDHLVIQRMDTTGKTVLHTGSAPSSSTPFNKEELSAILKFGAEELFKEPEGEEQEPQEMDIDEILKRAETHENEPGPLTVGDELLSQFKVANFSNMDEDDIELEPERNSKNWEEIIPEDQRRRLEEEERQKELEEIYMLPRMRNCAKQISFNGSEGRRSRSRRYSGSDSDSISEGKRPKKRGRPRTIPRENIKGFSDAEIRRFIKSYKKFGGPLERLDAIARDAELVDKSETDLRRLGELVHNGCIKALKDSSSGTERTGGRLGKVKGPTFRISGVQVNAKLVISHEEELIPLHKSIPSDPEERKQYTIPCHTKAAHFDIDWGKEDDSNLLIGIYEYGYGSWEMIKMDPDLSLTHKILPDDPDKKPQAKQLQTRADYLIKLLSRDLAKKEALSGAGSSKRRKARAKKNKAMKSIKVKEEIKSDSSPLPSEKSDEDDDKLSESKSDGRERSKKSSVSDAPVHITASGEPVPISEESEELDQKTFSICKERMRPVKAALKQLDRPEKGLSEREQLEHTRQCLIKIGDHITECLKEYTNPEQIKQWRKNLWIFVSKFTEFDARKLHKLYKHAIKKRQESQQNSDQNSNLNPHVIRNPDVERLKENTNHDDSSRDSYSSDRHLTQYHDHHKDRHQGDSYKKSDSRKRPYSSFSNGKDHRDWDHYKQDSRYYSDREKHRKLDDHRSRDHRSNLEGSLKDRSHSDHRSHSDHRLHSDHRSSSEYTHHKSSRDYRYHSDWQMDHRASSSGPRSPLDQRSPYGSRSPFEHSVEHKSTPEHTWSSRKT
UniProt Q15645, sequence (whole entry, looked up): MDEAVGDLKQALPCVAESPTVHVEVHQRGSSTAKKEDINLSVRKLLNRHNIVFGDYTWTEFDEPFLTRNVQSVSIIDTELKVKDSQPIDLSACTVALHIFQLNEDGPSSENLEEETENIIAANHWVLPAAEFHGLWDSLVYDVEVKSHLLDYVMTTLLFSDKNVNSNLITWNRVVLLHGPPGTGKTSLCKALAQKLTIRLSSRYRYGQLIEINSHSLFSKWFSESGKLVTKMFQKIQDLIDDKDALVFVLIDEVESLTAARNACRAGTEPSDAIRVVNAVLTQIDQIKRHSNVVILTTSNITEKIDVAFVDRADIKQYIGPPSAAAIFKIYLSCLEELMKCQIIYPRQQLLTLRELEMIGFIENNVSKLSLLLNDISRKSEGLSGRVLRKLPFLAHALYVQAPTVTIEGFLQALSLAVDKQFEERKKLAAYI
UniProt Q9UL54, sequence (whole entry, looked up): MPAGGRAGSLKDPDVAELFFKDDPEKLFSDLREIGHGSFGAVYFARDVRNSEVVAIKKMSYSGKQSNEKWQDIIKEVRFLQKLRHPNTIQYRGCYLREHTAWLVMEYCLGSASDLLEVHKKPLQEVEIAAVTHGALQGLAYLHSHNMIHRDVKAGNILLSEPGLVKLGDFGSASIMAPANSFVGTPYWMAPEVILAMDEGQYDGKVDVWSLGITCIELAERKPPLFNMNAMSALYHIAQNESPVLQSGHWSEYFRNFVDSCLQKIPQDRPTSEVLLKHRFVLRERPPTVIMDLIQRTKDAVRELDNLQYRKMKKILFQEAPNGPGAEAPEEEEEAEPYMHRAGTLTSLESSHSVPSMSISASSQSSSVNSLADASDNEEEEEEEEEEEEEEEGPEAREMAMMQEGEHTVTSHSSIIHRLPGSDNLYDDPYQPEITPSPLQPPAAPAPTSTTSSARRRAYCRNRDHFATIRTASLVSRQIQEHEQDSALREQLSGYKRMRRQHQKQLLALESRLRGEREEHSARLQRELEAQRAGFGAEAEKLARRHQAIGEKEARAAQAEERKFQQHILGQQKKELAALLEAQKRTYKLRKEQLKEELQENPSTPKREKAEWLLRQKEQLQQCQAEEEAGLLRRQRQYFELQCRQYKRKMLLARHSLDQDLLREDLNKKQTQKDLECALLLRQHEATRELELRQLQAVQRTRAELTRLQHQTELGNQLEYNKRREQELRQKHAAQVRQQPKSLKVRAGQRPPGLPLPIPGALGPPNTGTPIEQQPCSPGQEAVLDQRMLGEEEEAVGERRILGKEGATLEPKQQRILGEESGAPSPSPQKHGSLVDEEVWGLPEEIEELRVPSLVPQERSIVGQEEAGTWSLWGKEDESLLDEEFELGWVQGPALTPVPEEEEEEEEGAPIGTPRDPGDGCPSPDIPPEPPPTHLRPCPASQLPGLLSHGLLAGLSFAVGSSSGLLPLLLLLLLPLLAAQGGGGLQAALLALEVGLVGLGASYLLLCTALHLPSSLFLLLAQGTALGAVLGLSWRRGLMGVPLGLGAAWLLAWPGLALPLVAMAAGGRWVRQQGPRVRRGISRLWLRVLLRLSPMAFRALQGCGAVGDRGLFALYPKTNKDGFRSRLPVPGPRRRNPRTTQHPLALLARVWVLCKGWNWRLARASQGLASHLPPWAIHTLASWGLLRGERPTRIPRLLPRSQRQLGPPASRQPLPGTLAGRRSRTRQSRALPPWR
UniProt Q15139, sequence (whole entry, looked up): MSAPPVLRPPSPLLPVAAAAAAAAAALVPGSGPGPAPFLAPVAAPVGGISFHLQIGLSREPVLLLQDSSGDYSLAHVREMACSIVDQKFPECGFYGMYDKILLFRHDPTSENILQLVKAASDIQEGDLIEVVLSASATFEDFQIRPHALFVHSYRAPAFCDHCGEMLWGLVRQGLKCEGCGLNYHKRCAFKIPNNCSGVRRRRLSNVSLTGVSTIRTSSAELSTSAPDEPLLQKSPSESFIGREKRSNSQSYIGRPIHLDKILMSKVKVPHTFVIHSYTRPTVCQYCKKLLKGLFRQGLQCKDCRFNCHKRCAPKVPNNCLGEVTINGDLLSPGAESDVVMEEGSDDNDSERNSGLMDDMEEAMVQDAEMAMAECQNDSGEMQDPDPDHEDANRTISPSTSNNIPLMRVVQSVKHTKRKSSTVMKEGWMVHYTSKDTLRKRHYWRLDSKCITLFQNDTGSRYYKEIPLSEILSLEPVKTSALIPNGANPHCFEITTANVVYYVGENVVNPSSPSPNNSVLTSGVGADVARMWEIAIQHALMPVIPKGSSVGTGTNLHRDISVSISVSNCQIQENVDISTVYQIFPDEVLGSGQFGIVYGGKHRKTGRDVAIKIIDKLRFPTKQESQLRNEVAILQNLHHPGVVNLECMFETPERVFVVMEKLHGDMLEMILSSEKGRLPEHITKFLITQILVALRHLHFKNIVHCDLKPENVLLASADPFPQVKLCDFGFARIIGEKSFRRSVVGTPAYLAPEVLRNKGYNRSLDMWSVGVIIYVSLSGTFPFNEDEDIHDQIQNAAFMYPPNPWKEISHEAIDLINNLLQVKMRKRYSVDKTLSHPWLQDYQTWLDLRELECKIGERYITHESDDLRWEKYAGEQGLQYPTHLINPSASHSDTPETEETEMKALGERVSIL
UniProt P11309, sequence (whole entry, looked up): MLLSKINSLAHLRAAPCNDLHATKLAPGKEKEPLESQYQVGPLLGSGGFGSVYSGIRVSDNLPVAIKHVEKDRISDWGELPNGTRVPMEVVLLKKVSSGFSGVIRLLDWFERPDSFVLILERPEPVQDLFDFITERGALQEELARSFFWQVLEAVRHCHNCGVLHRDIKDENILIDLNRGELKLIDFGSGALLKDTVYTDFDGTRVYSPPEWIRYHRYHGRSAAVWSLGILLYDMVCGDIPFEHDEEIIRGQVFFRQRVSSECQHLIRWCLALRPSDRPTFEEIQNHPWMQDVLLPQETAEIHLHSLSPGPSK

Set 1 — observed: enzyme activity; mode: inhibitor; tested at: 0.5 µM; reference: control; quantity: remaining activity
Target: Tyrosine-protein kinase receptor UFO (AXL, Homo sapiens, UniProt P30530)
Target sequence (P30530 1-894): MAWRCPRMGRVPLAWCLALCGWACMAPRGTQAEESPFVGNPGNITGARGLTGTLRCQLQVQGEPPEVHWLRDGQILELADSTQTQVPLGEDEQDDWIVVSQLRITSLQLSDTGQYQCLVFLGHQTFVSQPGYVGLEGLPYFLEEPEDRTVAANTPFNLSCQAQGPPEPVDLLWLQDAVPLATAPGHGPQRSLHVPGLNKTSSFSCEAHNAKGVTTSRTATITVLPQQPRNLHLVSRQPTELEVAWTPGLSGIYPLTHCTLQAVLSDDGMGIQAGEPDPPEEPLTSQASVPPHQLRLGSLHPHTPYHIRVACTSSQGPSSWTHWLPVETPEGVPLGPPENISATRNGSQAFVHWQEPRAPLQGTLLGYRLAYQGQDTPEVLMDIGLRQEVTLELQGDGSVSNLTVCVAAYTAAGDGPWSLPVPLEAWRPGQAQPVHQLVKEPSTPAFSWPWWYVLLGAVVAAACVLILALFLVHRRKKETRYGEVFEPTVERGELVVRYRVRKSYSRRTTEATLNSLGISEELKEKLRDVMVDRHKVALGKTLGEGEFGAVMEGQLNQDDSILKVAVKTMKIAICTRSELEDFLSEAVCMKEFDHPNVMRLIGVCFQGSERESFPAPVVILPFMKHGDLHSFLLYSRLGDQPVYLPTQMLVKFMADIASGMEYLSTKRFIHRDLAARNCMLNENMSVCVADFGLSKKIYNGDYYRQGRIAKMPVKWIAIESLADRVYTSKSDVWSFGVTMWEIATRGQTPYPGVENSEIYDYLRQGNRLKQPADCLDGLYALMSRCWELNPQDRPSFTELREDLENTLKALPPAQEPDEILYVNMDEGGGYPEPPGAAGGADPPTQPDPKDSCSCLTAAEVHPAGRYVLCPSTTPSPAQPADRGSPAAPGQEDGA
Nc1ccc2ncnc(NCCc3ccc(Oc4ccccc4)cc3)c2c1: 96.1%
Cc1cccc(-c2[nH]c(C(C)(C)C)nc2-c2ccc3c(c2)OCO3)n1: 101%
Nc1ncnc2n[nH]c(Nc3ccc(F)cc3)c12: 45.4%
COc1cc2ncnc(Nc3ccc(Oc4ccccc4)cc3)c2cc1OC: 98.2%
Cc1nc(-c2ccccc2)c(-c2ccncc2)o1: 91.1%
Cn1sc(=O)n(Cc2ccccc2)c1=O: 96.9%
CO[C@H]1C[C@@H]2CC[C@@H](C)[C@@](O)(O2)C(=O)C(=O)N2CCCC[C@H]2C(=O)O[C@H]([C@H](C)C[C@@H]2CC[C@@H](O)[C@H](OC)C2)CC(=O)[C@H](C)/C=C(\C)[C@@H](O)[C@@H](OC)C(=O)[C@H](C)C[C@H](C)/C=C/C=C/C=C/1C: 99.5%
COc1ccc(OC)c2c(=S)c3ccccc3[nH]c12: 103%
Oc1ccc(-c2nc(-c3ccncc3)c(-c3ccc(F)cc3)[nH]2)cc1: 99.8%
NCCNc1ncc(C(N)=O)c(Nc2cccc(C(F)(F)F)c2)n1: 98.4%
CC(C)[C@H](CO)Nc1nc(Nc2cc(N)cc(Cl)c2)c2ncn(C(C)C)c2n1: 93.1%
O=C1NC(=O)C(c2cn(CCCO)c3ncccc23)=C1c1cnccn1: 104%
C#Cc1cccc(Nc2ncnc3cc(OCCOC)c(OCCOC)cc23)c1: 72.5%
O=C1NC(=O)C(c2cn(CCCn3ccnc3)c3ccccc23)=C1Nc1ccccc1: 98.8%

Set 2 — observed: ATPase activity; technique: ADP-Glo; reference: DMSO; quantity: remaining activity
Compound: CO[C@@H]1[C@@H](OC(N)=O)[C@@H](O)[C@H](Oc2ccc3c(O)c(NC(=O)c4ccc(O)c(CC=C(C)C)c4)c(=O)oc3c2C)OC1(C)C
RAD51: DNA repair protein RAD51 homolog 1 (RAD51, Homo sapiens, UniProt Q06609)
UniProt Q06609, sequence (whole entry, looked up): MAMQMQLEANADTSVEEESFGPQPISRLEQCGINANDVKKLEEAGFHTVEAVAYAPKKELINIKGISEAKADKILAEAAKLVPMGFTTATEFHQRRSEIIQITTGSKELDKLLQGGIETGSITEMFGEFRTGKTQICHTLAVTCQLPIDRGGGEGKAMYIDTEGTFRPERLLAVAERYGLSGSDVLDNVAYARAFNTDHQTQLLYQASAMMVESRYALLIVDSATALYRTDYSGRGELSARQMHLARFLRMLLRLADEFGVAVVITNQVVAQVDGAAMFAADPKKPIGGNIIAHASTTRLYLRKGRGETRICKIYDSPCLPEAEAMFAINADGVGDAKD
HSP90AA1 (Homo sapiens, UniProt P07900); 100 µM: 98.5% and 78.2% and 94% and 105% and 99.7% and 95.8%
TRIP13 (Homo sapiens, UniProt Q15645); 50 µM: 101% and 91.3% and 102% and 104% and 91.4% and 96.7%
CHD1 (Homo sapiens, UniProt O14646); 25 µM: 99.6% and 96.2% and 96.6% and 86.9% and 97.2% and 88.7%
RAD51; 50 µM: 91.5% and 87.5% and 93.6% and 87.7% and 96.2% and 99.4%
RAD51; 100 µM: 77.9% and 75.1% and 64.5% and 69.9% and 73.8%

Set 3 — tested at: 5 µM; quantity: remaining activity
SMILES: O=C(Nc1cnn(-c2csc(C(=O)NC3COC3)c2)c1)Nc1ccccc1Cl
TAOK2 (Homo sapiens, UniProt Q9UL54); kinase activity, kinase panel profiling: 101%
PIM3 (Homo sapiens, UniProt Q86V86); enzyme activity; reference: untreated control: 60.5%
PRKD1 (Homo sapiens, UniProt Q15139); enzyme activity; reference: untreated control: 106%
STK38 (Homo sapiens, UniProt Q15208); enzyme activity; reference: untreated control: 98.5%
MARK1 (Homo sapiens, UniProt Q9P0L2); enzyme activity; reference: untreated control: 93.7%
PIM1 (Homo sapiens, UniProt P11309); enzyme activity; reference: untreated control: 64.4%
MASTL (Homo sapiens, UniProt Q96GX5); enzyme activity; reference: untreated control: 96.6%

Set 4 — technique: phase 2a trial; host: idiopathic pulmonary fibrosis patients; quantity: patients with coronary arteriosclerosis
SMILES: CC(C)n1cnc(-c2ccc(F)cc2)c1-c1ncc(C(=O)Nc2ccc(N3CCN(C)CC3)cc2)[nH]1
30 mg once daily, adverse event grade 2: 0%
60 mg once daily, adverse event grade 2: 0%
dose not given, adverse event grade 1, all dose arms pooled: 0%
60 mg once daily, adverse event grade 3: 0%
60 mg once daily, adverse event grade 4: 0%
30 mg once daily, adverse event grade 3: 0%
